# Results of several laboratories.
# Every numbered part comes from another study and shows a few of its results, in no order.
# Sequence of UniProt P29320 (whole entry, looked up): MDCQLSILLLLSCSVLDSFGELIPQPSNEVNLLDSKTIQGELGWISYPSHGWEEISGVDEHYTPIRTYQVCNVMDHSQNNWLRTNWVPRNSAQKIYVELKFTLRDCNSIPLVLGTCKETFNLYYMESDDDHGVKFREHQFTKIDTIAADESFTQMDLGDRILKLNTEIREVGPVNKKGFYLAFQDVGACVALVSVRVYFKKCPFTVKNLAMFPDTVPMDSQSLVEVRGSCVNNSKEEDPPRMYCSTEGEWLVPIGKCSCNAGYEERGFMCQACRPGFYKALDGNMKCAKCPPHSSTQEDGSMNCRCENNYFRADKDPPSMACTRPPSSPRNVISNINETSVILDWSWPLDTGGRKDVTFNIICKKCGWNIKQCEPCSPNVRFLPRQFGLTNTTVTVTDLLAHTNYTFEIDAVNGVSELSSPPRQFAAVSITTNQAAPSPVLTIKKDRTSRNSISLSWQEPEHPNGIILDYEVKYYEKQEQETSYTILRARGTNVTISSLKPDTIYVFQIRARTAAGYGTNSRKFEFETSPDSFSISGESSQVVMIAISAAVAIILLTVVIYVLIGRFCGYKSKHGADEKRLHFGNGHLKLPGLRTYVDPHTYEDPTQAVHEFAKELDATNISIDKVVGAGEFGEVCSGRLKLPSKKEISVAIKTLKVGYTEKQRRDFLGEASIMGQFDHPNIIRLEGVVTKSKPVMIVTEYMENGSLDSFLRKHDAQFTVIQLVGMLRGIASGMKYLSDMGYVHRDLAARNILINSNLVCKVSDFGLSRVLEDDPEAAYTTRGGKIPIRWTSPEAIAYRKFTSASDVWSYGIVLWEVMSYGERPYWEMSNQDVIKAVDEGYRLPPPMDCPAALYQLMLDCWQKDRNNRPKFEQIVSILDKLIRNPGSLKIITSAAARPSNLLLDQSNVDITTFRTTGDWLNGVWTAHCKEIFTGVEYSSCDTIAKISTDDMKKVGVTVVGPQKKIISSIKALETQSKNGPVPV
# Sequence of UniProt Q8IYT8 (whole entry, looked up): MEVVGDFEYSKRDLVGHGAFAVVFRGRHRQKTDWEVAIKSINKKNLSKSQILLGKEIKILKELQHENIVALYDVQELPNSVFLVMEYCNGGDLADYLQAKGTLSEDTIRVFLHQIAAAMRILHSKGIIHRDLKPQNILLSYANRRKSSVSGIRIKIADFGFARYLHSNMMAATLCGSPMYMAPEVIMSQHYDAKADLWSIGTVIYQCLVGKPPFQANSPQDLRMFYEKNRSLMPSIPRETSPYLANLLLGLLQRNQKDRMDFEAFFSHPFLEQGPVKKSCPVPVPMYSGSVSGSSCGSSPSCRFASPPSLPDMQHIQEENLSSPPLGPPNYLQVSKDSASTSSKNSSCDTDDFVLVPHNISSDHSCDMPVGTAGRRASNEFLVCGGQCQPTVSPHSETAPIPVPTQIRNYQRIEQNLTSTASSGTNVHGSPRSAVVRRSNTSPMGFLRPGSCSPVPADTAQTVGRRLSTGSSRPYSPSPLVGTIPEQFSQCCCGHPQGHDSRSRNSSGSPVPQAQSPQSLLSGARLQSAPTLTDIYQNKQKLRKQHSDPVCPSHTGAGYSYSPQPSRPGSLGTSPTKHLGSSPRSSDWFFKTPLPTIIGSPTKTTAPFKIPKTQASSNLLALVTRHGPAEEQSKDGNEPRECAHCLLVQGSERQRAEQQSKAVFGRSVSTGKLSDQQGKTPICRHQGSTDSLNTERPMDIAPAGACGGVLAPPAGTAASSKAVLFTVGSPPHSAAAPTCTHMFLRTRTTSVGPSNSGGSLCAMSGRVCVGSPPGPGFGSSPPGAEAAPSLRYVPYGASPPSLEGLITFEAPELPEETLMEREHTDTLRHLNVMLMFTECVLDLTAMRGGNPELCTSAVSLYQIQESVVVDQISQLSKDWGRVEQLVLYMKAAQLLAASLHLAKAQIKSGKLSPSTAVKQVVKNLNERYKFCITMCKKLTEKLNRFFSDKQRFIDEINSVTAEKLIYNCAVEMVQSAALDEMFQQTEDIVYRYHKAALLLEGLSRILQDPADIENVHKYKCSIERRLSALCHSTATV
# Sequence of UniProt Q9Y6M4 (whole entry, looked up): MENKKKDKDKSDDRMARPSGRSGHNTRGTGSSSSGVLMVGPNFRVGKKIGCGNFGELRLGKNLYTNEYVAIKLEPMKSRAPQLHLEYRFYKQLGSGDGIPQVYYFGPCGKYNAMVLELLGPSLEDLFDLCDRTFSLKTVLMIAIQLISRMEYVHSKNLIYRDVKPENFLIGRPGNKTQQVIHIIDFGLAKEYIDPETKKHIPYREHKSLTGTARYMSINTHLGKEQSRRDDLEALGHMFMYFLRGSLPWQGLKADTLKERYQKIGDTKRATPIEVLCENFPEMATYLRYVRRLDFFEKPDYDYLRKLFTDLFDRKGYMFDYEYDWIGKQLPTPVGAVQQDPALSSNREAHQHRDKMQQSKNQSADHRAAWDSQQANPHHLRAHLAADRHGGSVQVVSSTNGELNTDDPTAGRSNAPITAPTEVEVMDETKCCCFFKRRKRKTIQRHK
# Sequence of UniProt P36507 (whole entry, looked up): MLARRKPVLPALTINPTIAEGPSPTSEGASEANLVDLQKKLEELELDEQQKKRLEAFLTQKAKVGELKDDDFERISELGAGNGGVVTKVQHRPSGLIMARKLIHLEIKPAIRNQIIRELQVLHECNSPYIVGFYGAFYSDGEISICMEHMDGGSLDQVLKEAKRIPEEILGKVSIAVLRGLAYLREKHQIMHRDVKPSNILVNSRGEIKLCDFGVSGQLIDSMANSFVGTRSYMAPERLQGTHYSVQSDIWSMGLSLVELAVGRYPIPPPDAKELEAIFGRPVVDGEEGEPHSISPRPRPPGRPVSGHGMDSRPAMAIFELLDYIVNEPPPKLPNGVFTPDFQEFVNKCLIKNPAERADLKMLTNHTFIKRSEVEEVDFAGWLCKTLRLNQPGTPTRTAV
# Sequence of UniProt Q04912 (whole entry, looked up): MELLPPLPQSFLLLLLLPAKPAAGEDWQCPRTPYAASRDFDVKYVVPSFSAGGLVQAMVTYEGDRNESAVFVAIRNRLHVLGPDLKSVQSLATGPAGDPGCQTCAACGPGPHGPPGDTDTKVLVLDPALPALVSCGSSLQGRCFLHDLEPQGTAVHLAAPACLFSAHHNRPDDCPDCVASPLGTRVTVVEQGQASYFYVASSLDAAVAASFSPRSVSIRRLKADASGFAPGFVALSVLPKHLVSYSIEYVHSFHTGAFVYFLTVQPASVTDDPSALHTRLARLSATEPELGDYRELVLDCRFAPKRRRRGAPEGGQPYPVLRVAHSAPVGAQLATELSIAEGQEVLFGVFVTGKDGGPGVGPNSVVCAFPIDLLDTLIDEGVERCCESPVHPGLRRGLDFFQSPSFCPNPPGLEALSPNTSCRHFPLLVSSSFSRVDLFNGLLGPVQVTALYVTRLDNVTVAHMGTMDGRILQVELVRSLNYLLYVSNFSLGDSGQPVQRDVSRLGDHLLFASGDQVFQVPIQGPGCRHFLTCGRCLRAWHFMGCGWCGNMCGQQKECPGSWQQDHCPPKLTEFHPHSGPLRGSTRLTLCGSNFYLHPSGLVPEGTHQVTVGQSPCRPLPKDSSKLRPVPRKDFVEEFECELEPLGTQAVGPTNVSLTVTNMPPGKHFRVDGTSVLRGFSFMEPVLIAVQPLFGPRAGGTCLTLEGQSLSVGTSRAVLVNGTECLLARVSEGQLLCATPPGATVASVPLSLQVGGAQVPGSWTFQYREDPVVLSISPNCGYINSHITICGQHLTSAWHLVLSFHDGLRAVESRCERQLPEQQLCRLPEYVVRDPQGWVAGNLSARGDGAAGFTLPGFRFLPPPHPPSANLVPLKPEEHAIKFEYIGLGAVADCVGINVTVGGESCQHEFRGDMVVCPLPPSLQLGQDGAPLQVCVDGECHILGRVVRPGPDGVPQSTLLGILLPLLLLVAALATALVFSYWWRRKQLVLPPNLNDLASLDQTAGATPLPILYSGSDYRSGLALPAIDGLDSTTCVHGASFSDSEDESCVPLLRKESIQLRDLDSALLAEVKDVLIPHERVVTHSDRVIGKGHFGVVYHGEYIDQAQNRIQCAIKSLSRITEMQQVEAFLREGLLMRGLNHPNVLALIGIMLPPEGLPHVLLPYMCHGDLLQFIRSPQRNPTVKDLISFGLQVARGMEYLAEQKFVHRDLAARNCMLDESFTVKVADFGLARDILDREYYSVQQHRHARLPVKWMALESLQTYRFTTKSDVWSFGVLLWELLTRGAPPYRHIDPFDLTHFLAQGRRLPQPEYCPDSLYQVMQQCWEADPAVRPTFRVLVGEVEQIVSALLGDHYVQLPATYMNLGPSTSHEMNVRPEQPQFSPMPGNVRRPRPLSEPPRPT
# Sequence of UniProt P27361 (whole entry, looked up): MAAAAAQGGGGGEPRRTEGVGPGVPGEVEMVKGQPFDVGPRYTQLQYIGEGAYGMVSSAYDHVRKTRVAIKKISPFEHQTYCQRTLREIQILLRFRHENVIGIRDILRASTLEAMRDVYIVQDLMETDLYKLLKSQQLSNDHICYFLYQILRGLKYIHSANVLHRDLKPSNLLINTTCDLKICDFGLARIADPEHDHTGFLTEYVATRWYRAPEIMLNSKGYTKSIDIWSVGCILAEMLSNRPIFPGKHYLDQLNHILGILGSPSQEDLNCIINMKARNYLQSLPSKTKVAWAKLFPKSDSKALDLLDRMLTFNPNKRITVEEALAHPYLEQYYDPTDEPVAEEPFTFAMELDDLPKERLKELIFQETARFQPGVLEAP
# Sequence of UniProt P0C264 (whole entry, looked up): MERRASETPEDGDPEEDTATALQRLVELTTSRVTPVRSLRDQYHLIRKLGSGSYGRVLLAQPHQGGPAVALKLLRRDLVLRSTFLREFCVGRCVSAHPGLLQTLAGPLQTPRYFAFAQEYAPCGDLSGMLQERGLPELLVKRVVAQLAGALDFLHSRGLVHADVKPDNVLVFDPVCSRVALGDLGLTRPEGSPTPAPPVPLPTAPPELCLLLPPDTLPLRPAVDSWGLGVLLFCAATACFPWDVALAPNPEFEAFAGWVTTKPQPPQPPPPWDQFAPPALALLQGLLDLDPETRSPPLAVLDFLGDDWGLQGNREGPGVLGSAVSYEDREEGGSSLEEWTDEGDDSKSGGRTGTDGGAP

# Study 1
# SMILES: O=C1NC(=O)c2c1c1c3ccccc3[nH]c1c1[nH]c3cc(Br)ccc3c21
# Read-out: enzyme activity
# Mode: inhibitor
# Tested at: 0.5 µM
# Baseline: control
target,remaining activity
"MERTK (Homo sapiens, UniProt Q12866)",69.1%
"CSNK1G3 (Homo sapiens, UniProt Q9Y6M4)",94.6%
"MAPK3 (Homo sapiens, UniProt P27361)",108%
"WEE1 (Homo sapiens, UniProt P30291)",74.6%
"GRK7 (Homo sapiens, UniProt Q8WTQ7)",98.2%
"TBK1 (Homo sapiens, UniProt Q9UHD2)",53.5%
"NEK6 (Homo sapiens, UniProt Q9HC98)",104%
"MAP3K14 (Homo sapiens, UniProt Q99558)",101%
"ULK2 (Homo sapiens, UniProt Q8IYT8)",86%
"MST1R (Homo sapiens, UniProt Q04912)",101%
"MAP2K2 (Homo sapiens, UniProt P36507)",105%
"TAOK2 (Homo sapiens, UniProt Q9UL54)",94.1%
"EPHA3 (Homo sapiens, UniProt P29320)",100%
"FGFR1 (Homo sapiens, UniProt P11362)",85.3%

# Study 2
# SMILES: O=C(NS(=O)(=O)c1ccc(NCC2CCOCC2)c([N+](=O)[O-])c1)c1ccc(N2CCN(Cc3ccc(C(F)(F)F)cc3-c3ccc(Cl)cc3)CC2)cc1Oc1cnc2[nH]ccc2c1
# Read-out: cell-free assay
# Technique: competition with immobilised ligand
# Tested at: 1 µM
target,remaining binding
"SNRK (Homo sapiens, UniProt Q9NRH2)",100%
"PRKCD (Homo sapiens, UniProt Q05655)",100%
"STK3 (Homo sapiens, UniProt Q13188)",100%
"SBK3 (Homo sapiens, UniProt P0C264)",100%
"EGFR (Homo sapiens, UniProt P00533, L861Q)",93%
"Tyrosine-protein kinase ABL1, phosphorylated (ABL1, Homo sapiens, UniProt P00519, Q252H)",84%
"STK4 (Homo sapiens, UniProt Q13043)",94%
"CIT (Homo sapiens, UniProt O14578)",91%

# Study 3
# Organism: Sarcocystis neurona
# Read-out: parasite growth
# Tested at: concentration not given
SMILES,inhibition [%]
CCC(C)(C)N=C(NC#N)Nc1cccnc1,-12.4
NC(=O)OCC(COC(N)=O)c1ccccc1.O,-10.7
Cl.Cn1c(NCCN(CCO)CCCc2ccc([N+](=O)[O-])cc2)cc(=O)n(C)c1=O,-14
CN1CCC(=C2c3ccccc3CCc3sccc32)CC1.O=C(O)/C=C\C(=O)O,-10
CCN(CC)C(=O)C1(c2ccccc2)CC1CN.Cl (stereo not drawn),-7.9
CN(C)CCC=C1c2ccccc2CCc2ccccc21.Cl,0.559
O=C1c2c(O)cc(O)cc2OC(c2ccc(O)c(O)c2)C1O (stereo not drawn),-2.8

# Further values, each from its own experiment
Structure (SMILES),target,assay,system,setting,endpoint,result
C=C(F)C(=O)N1CCN(c2nc(OC[C@@H]3CCCN3C)nc3c2CCN(c2cccc4cccc(Cl)c24)C3)C[C@@H]1CC#N,"GTPase HRas (HRAS, Homo sapiens, UniProt P01112)","binding, competitor, NanoBRET",HEK293,2.5 µM,normalized BRET,103%
